{"data": "Earlier results that unrelated publications cite", "note": "Compare with care: the assays were run in different laboratories."}
{"Structure (SMILES)": "CN(C(=O)[C@H](Cc1ccccc1)NC(=O)Cc1c[nH]c2ccc(O)cc12)c1ccccc1", "tested on": "HIV-1 capsid hexamer wild type", "quantity": "ΔTm", "value": "6.8 °C"}
{"Structure (SMILES)": "COCc1cc(O)c(=O)c(O)c(C(=O)OC)c1C(=O)OC", "tested on": "HIV RNase H", "effect on": "enzyme activity", "quantity": "IC50", "value": "1 µM"}
{"Structure (SMILES)": "O=c1c(O)c(-c2ccc(O)c(O)c2)oc2c([Se]c3ccccc3)c(O)cc(O)c12", "tested on": "SARS-CoV-2 main protease", "effect on": "enzyme activity", "mode": "inhibitor", "quantity": "IC50", "value": "5.1 µM"}
{"Structure (SMILES)": "CC(C)[C@H](NC(=O)[C@H](CCCNC(=N)N)NC(=O)[C@H](Cc1ccccc1)NC(=O)[C@H](CS)NC(=O)[C@H](Cc1c[nH]c2ccccc12)NC(=O)[C@@H](N)CCCCN)C(=O)N[C@@H](CS)C(=O)N[C@@H](Cc1c[nH]c2ccccc12)C(=O)N[C@@H](CCCNC(=N)N)C(=O)N[C@@H](Cc1c[nH]c2ccccc12)C(=O)N[C@@H](Cc1ccccc1)C(=O)N[C@@H](CS)C(=O)N[C@@H](Cc1c[nH]c2ccccc12)C(=O)N[C@@H](CCCNC(=N)N)C(=O)N[C@@H](CCCCN)C(=O)N[C@@H](CS)C(=O)N[C@@H](CCCNC(=N)N)C(=O)O", "tested on": "Escherichia coli", "quantity": "MIC", "value": "2 µM"}
{"Structure (SMILES)": "S=c1oc(-c2ccccc2)nn1CN1CCN(Cc2ccccc2)CC1", "tested on": "amyloid beta", "effect on": "aggregation", "mode": "inhibitor", "concentration": "10 µM", "quantity": "inhibition", "value": "27.3%"}
{"Structure (SMILES)": "COC1C2(O)C(=O)N3C=CC(C)(C)c4[nH]c5ccccc5c4C=C3C(=O)N2C23C(C)C(C)(C)N2c2ccccc2C13O (stereo not drawn)", "tested on": "glycine receptor α1β, human", "concentration": "10 µM", "quantity": "activity", "value": "inactive"}
{"Structure (SMILES)": "N#Cc1cccc(-n2[se]c3ccccc3c2=O)c1", "tested on": "SARS-CoV-2 main protease", "effect on": "enzyme activity", "mode": "inhibitor", "quantity": "IC50", "value": "0.38 µM"}
{"Structure (SMILES)": "Nc1ncnc2c1ncn2[C@@H]1O[C@H](CSCc2cccc(C(=O)O)c2)[C@@H](O)[C@H]1O", "tested on": "human GNMT", "setting": "off-target", "quantity": "IC50", "value": "0.0086 µM"}
{"Structure (SMILES)": "CCn1c(C)c(CC(=O)N[C@@H](Cc2ccccc2)C(=O)N(C)c2ccc(Cl)cc2)c2ccccc21", "tested on": "HIV-1 capsid hexamer wild type", "quantity": "ΔTm", "value": "11.9 °C"}
{"Structure (SMILES)": "O=C(c1cccc(Cn2[se]c3ccccc3c2=O)c1)N1CCOCC1", "tested on": "SARS-CoV-2 main protease", "effect on": "enzyme activity", "mode": "inhibitor", "quantity": "IC50", "value": "0.35 µM"}
{"Structure (SMILES)": "CCn1c(C)c(CC(=O)N[C@@H](Cc2ccccc2)C(=O)N(C)c2cccc(F)c2)c2ccccc21", "tested on": "HIV-1 capsid hexamer wild type", "quantity": "ΔTm", "value": "10.8 °C"}
{"Structure (SMILES)": "CC[C@H](C)[C@H](NC(=O)CNC(=O)[C@@H](NC(=O)CNC(=O)[C@@H](NC(=O)CNC(=O)[C@@H](NC(=O)[C@@H](NC(=O)[C@H](CCC(N)=O)NC(=O)[C@H](CCC(=O)O)NC(=O)[C@@H](NC(=O)[C@H](CC(C)C)NC(=O)[C@H](CCCNC(=N)N)NC(=O)[C@H](Cc1ccccc1)NC(=O)[C@@H](NC(=O)[C@H](CC(N)=O)NC(=O)[C@H](CCCCN)NC(=O)CNC(=O)[C@H](CCSC)NC(=O)[C@H](CCCCN)NC(=O)CNC(=O)[C@H](CC(C)C)NC(=O)[C@H](CCCCN)NC(=O)[C@H](CCCCN)NC(=O)CNC(=O)[C@H](Cc1ccccc1)NC(=O)[C@H](CCCCN)NC(=O)[C@H](CCCCN)NC(=O)[C@H](CC(C)C)NC(=O)[C@H](Cc1c[nH]c2ccccc12)NC(=O)CN)C(C)C)C(C)C)C(C)C)C(C)C)C(C)C)C(C)C)C(=O)N[C@@H](CC(N)=O)C(=O)N[C@@H](C)C(=O)N[C@@H](CC(C)C)C(=O)N[C@@H](CO)C(=O)O", "tested on": "Escherichia coli", "quantity": "MIC", "value": "8 µM"}
{"note": "Some of these lines once more:"}
{"Structure (SMILES)": "CC(C)[C@H](NC(=O)[C@H](CCCNC(=N)N)NC(=O)[C@H](Cc1ccccc1)NC(=O)[C@H](CS)NC(=O)[C@H](Cc1c[nH]c2ccccc12)NC(=O)[C@@H](N)CCCCN)C(=O)N[C@@H](CS)C(=O)N[C@@H](Cc1c[nH]c2ccccc12)C(=O)N[C@@H](CCCNC(=N)N)C(=O)N[C@@H](Cc1c[nH]c2ccccc12)C(=O)N[C@@H](Cc1ccccc1)C(=O)N[C@@H](CS)C(=O)N[C@@H](Cc1c[nH]c2ccccc12)C(=O)N[C@@H](CCCNC(=N)N)C(=O)N[C@@H](CCCCN)C(=O)N[C@@H](CS)C(=O)N[C@@H](CCCNC(=N)N)C(=O)O", "tested on": "Escherichia coli", "quantity": "MIC", "value": "2 µM"}
